Assay results pooled from the literature.
Numbered parts are unrelated; each lists some results of a single study.

Sample 1
Target: RNA binding protein fox-1 homolog 2, RRM domain, GST-SBP tag (RBFOX2, Homo sapiens, UniProt O43251-10, residues 100-194)
Method: RNA Bind-n-Seq
Form: RNA
Medium: in vitro
Concentration: 365 nM
Notes: natural RNA segment, single round, ends assumed
Reference: no-protein control
Direction: higher = stronger binding
Measurement: RBNS enrichment (R)
Construct (chain): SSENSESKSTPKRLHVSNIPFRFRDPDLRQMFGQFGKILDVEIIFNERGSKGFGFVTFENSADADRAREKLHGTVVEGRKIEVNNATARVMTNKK
Oligonucleotide = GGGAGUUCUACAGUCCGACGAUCGGGGUAGGAUGGUUGGGACCAGAUUGACUACCCUGUACCCUUCCUUCUUCCCCAAUAUGCCUGCGCCAUCUUCACAUUCUGAAGUUGAAACCCAUGAUCACCCCUUUGAGUGGAAUUCUCGGGUGCCAA; value = 1.02
Oligonucleotide = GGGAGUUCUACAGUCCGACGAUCUAGAUGGCUUCUUGCCAGUUUGAGCCUAAUCUGAUUCUUACAGUUUUACCUUCUUGAACCAAUGUAAAAGUUUUUUUAAUGUUAAAUGAUUAAAUUCUCAGUGAGGCUAUUGGAAUUCUCGGGUGCCAA; value = 0.519
Oligonucleotide = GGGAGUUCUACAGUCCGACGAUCCAUAAUAAAUAGAUCUUAAACAUAGGAAAACCAUACUGUUCUGAUAAUAAAAUGCUUUCUAUGAAAUACGUUGCUUUUCUACCGAGUCAUUAUUUUAUUUAUUUAUUUUAUGGAAUUCUCGGGUGCCAA; value = 0.929
Oligonucleotide = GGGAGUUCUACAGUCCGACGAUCAUUUGUUUUUCUUAUCCAAGUAAAGAUGUCAAUAGGAAUUGCAUUAGUCCAAGGCCUUUUUCAUAAACUGAGCCUCUUUUCAAUUAUUUCAAUGGGACAGGAACUAGGAUUGGAAUUCUCGGGUGCCAA; value = 0.337
Oligonucleotide = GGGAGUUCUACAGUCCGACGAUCGAUGAUUUUCUCUGAUGAGGUCCUAUCUGCAAGGUCAAUGAGCAGACUUACAUGCCAUCUUCUGAGUAAAGAGUUUGAGGUUUUAAUUUAAAGGCAAUGUACAGCUAUACUGGAAUUCUCGGGUGCCAA; value = 0.472
Oligonucleotide = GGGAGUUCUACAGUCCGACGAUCGUCUUCAAAUACCUUGAAAAAAAAUAGACUGUAUGUUGAAAAUUGUAUUGAAAUAAAGUAGAAAAUGUUCGGUAUCAUAUUUGUAACUAUCAACUUUUAAAAACAUUUGAUGGAAUUCUCGGGUGCCAA; value = 0.948
Oligonucleotide = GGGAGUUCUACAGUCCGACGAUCCUGAAAAAUACAAGGGCUGUUGGUGAGAGCAGACUUGAGGUGAUGAUAGUUGGCCUCUGGUCUACAAAGAUUUCAUAACUCCUUGGAAAGCUUCUUAUAAUCAUUCUUAAUGGAAUUCUCGGGUGCCAA; value = 0.601
Oligonucleotide = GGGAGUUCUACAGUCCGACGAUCAAUCACUCAGUUCUUGGAAAAGUCAAACAACGUGGUGGACAUUUUGUCACAUUUUAGAAGCAGUCAGAUUCCCCCAAACGGCACGUGAACCUGAGUGCGGAUACUGCAAUUGGAAUUCUCGGGUGCCAA; value = 0.315
Oligonucleotide = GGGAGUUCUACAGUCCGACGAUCGAAACCACUUCAUCAGAAUGUGUGAGUCCUGGGGAUGCAUGGGGCACAGUUGAUGCUGCUUGGGACACGUUUCUUAGAGGGCUUACAGUAUGUAAAUAAUUGACAUUGGUUGGAAUUCUCGGGUGCCAA; value = 6.25
Oligonucleotide = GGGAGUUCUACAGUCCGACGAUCCAUUUGUUUGCCUUUCUGUUAUUUUUCCCUCUGCUUCUAUGUAUCUCUGUGAAUAAAUCCUUGUUAAGUUAACCCUUUGCUCUUCCUCCCAUGUGUAUUUUCUUACAUACUGGAAUUCUCGGGUGCCAA; value = 0.974
Oligonucleotide = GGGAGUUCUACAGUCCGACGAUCCUCAGGAAUUCCCUGGUUUCCACUGGGCCACCCACUUGCUGGACAGUCUGAGCCAAGUCCCUCCUGCUGGAGAAAAGCCUGGAACUGCCAAAACAAAAAAACAAAUACAAUGGAAUUCUCGGGUGCCAA; value = 0.41
Oligonucleotide = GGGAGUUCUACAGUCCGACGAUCGGCGACUUGAAUAAAGUGGGAGGUCAAACAUGGGCCUUCGGCAUUGGGUUUCUAGGGAAUAUGGCUCAGUAGGGCCUGCCCCUUCAAGGGCAGCAAGAACGAAGCAGGAUUGGAAUUCUCGGGUGCCAA; value = 0.326

Sample 2
Target: Prothrombin, mature alpha-thrombin (F2, Homo sapiens, UniProt P00734)
Method: aptamer microarray, sandwich
Form: DNA with 2'F-ANA
Medium: in vitro
Concentration: 200 nM
Notes: whole 15-mer aptamer, many near background
Added: Cy3 exosite-II aptamer, 400 nM
Direction: higher = stronger binding
Measurement: mean fluorescence intensity
Oligonucleotide: GGTTGGTGTGGTTGG
Modification = 2'F-ANA at 1 2 4 6 7 9 10 11 12 13 14 15; value = 66.1 a.u.
Modification = 2'F-ANA at 1 3 6 10 12; value = 116 a.u.
Modification = 2'F-ANA at 2 4 9 11 12; value = 461 a.u.
Modification = 2'F-ANA at 2 4 5 7 8 9 14 15; value = 50.6 a.u.
Modification = 2'F-ANA at 1 3 9 13 14; value = 73.6 a.u.
Modification = 2'F-ANA at 4 7 9 11 13; value = 183 a.u.
Modification = 2'F-ANA at 1 2 3 4 5 7 8 10 12; value = 50.4 a.u.
Modification = 2'F-ANA at 3 5 7 9 10 12 14; value = 76.3 a.u.
Modification = 2'F-ANA at 3 6 8 9 10 11 13 14; value = 361 a.u.
Modification = 2'F-ANA at 2 3 5 8 9 10 11 12 13 15; value = 136 a.u.
Modification = 2'F-ANA at 3 4 5 6 9; value = 89.9 a.u.
Modification = 2'F-ANA at 2 4 6 7 8 9 10 11 13 14; value = 59.9 a.u.
Modification = 2'F-ANA at 3 4 5 6 9 11 12 15; value = 129 a.u.
Modification = 2'F-ANA at 4 7 8 9 11 12 14; value = 123 a.u.
Modification = 2'F-ANA at 1 2 4 8 9 11 12 14; value = 65.4 a.u.
Modification = 2'F-ANA at 1 2 9 13; value = 121 a.u.
Modification = 2'F-ANA at 1 2 3 4 5 8 9 12 14 15; value = 48.9 a.u.
Modification = 2'F-ANA at 4 6 9 10 11 12 13 14 15; value = 63.5 a.u.
Modification = 2'F-ANA at 4 6 9 10 11 13 14 15; value = 58.8 a.u.
Modification = 2'F-ANA at 2 3 4 5 8 10 11; value = 75.9 a.u.
Modification = 2'F-ANA at 2 3 10 11 13 14; value = 283 a.u.
Modification = 2'F-ANA at 1 2 4 7 9 11 15; value = 97.6 a.u.
Modification = 2'F-ANA at 1 2 4 5 6 7 10 11 12 13 14; value = 157 a.u.
Modification = 2'F-ANA at 2 3 6 7 9 11 12 15; value = 769 a.u.
Modification = 2'F-ANA at 1 3 4 5 7 11 15; value = 105 a.u.

Sample 3
Target: TAR DNA-binding protein 43, full length, His tag (TARDBP, Homo sapiens, UniProt Q13148, residues 1-414)
Method: RNA Bind-n-Seq
Form: RNA
Medium: in vitro
Concentration: 20 nM
Notes: 6-mer, flanks averaged, single round
Added: 150 mM LiCl
Reference: input library
Direction: higher = stronger binding
Measurement: 6-mer enrichment (R)
Oligonucleotide = GGACAC; value = 0.98
Oligonucleotide = UAAUAA; value = 1.57
Oligonucleotide = CUGUUC; value = 0.923
Oligonucleotide = UGUAUG; value = 1.87
Oligonucleotide = UAUCUU; value = 0.984
Oligonucleotide = GAAUCA; value = 0.832
Oligonucleotide = AGCAGG; value = 1.01
Oligonucleotide = GGCAGC; value = 1.01
Oligonucleotide = UUAGAU; value = 0.902
Oligonucleotide = CUGUCG; value = 0.929
Oligonucleotide = CAAGAG; value = 0.908
Oligonucleotide = UCUAAG; value = 0.84
Oligonucleotide = UCCCGG; value = 0.931
Oligonucleotide = UAUGAC; value = 0.899
Oligonucleotide = UUGUGG; value = 1.38
Oligonucleotide = CACUAC; value = 0.871
Oligonucleotide = GAUUGG; value = 1.08
Oligonucleotide = AACAAC; value = 0.92
Oligonucleotide = AGUAAU; value = 0.897
Oligonucleotide = ACACGC; value = 0.868
Oligonucleotide = CUCAGG; value = 0.853
Oligonucleotide = AAAGUG; value = 1.05
Oligonucleotide = UUCCCU; value = 1.07
Oligonucleotide = CGGCAU; value = 0.92
Oligonucleotide = GCUAUC; value = 0.87

Sample 4
Target: Histone acetyltransferase KAT6A, winged helix 1, GST fusion (KAT6A, Homo sapiens, UniProt Q92794, residues 1-85)
Method: protein binding microarray
Form: double-stranded DNA, one strand shown
Medium: in vitro
Concentration: not given
Notes: 8-mer, flanks averaged, mean of 2 arrays, mostly near background
Reference: not given
Direction: higher = stronger binding
Measurement: E-score
Construct (chain): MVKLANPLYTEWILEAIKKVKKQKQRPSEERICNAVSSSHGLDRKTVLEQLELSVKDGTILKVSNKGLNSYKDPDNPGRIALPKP
Oligonucleotide = ACACTACA; value = -0.143
Oligonucleotide = ATTTGCTA; value = -0.218
Oligonucleotide = CCGATCCC; value = 0.19
Oligonucleotide = ACACCACC; value = -0.138
Oligonucleotide = GATAGTCA; value = -0.0201
Oligonucleotide = AGGCCTCG; value = -0.0353
Oligonucleotide = CGGGTGAG; value = 0.216
Oligonucleotide = CATGTTAG; value = -0.121
Oligonucleotide = AATTCTGT; value = -0.065
Oligonucleotide = AGTTAACC; value = 0.0518
Oligonucleotide = CGTTATCC; value = -0.0994
Oligonucleotide = AAGAAACC; value = -0.0141
Oligonucleotide = ACACTCCC; value = -0.00279
Oligonucleotide = GAAACTCC; value = -0.0234
Oligonucleotide = AATGTTGC; value = -0.0494
Oligonucleotide = GCCCTCTA; value = 0.00615
Oligonucleotide = CAGTTCAA; value = 0.0538
Oligonucleotide = CGTTGTTA; value = -0.0985
Oligonucleotide = ACCGTTAT; value = 0.0113
Oligonucleotide = ATAGATGA; value = -0.187
Oligonucleotide = GGCCACAA; value = -0.0976
Oligonucleotide = CGTTTTTA; value = 0.0985
Oligonucleotide = AGGGCCCT; value = -0.0979
Oligonucleotide = GGTCAGCA; value = -0.0849
Oligonucleotide = ACGTACAC; value = -0.165

Sample 5
Target: PABPC1L2, full length, GST fusion (mouse, UniProt A0ABA7IW68)
Method: RNAcompete
Form: RNA
Medium: in vitro
Concentration: 20 nM
Notes: 7-mer, probes averaged, single round
Reference: mean of 7-mers
Direction: higher = stronger binding
Measurement: 7-mer Z-score
Construct (chain): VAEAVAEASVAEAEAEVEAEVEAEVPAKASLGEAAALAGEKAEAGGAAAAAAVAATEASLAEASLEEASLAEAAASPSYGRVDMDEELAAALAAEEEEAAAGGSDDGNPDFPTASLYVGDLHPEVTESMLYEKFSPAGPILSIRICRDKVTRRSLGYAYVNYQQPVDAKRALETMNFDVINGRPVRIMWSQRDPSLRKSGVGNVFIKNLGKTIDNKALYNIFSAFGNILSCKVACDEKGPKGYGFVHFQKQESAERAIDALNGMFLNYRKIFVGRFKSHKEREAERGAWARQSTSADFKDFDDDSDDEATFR
Oligonucleotide = CUCCAGG; value = -0.191
Oligonucleotide = AUAUAUC; value = -0.117
Oligonucleotide = UAUUAAU; value = -0.304
Oligonucleotide = UCCUCCU; value = -0.411
Oligonucleotide = GGUCCUC; value = -0.195
Oligonucleotide = AAUAACC; value = 0.187
Oligonucleotide = CCGUUUU; value = -0.447
Oligonucleotide = GGGCACA; value = 0.378
Oligonucleotide = GUUUGUG; value = -0.465
Oligonucleotide = CAAACAC; value = 1.29
Oligonucleotide = CCACAAU; value = -0.184
Oligonucleotide = ACUGUUU; value = -0.371
Oligonucleotide = CGAGGAG; value = -0.0863
Oligonucleotide = GUCGACU; value = -0.217
Oligonucleotide = CGUGAUC; value = -0.293
Oligonucleotide = AUACUAA; value = 0.187
Oligonucleotide = UAGGUAC; value = -0.139
Oligonucleotide = UGCCGAG; value = -0.101
Oligonucleotide = ACAACCA; value = 0.374
Oligonucleotide = GUGUCCC; value = -0.331
Oligonucleotide = GGUAAGG; value = 0.133
Oligonucleotide = AUCAUCC; value = -0.271
Oligonucleotide = UUUAGAA; value = 0.296
Oligonucleotide = CGAGAAA; value = 1.75
Oligonucleotide = UCUCUUU; value = -0.347

A few entries again (sample 2):
Modification = 2'F-ANA at 1 2 4 5 6 7 10 11 12 13 14; value = 157 a.u.
Modification = 2'F-ANA at 2 4 5 7 8 9 14 15; value = 50.6 a.u.
Modification = 2'F-ANA at 2 3 6 7 9 11 12 15; value = 769 a.u.
Modification = 2'F-ANA at 2 4 9 11 12; value = 461 a.u.
Modification = 2'F-ANA at 1 2 3 4 5 8 9 12 14 15; value = 48.9 a.u.
Modification = 2'F-ANA at 2 3 4 5 8 10 11; value = 75.9 a.u.
Modification = 2'F-ANA at 3 4 5 6 9 11 12 15; value = 129 a.u.
Modification = 2'F-ANA at 1 3 6 10 12; value = 116 a.u.
Modification = 2'F-ANA at 4 7 8 9 11 12 14; value = 123 a.u.
Modification = 2'F-ANA at 4 7 9 11 13; value = 183 a.u.
Modification = 2'F-ANA at 1 3 9 13 14; value = 73.6 a.u.
Modification = 2'F-ANA at 1 2 4 6 7 9 10 11 12 13 14 15; value = 66.1 a.u.
Modification = 2'F-ANA at 3 6 8 9 10 11 13 14; value = 361 a.u.
Modification = 2'F-ANA at 1 2 4 7 9 11 15; value = 97.6 a.u.
Modification = 2'F-ANA at 3 4 5 6 9; value = 89.9 a.u.
